Measurements gathered from unrelated publications.
Each line is one published result; not all experiments were run side by side. ± marks the error that the study gave.

Compound | assay | test system | setting | Tmax [min]
CCOc1ccccc1-n1c(CN2CCNCC2)nc2ccccc2c1=O | – | C57BL/6 mouse, male, plasma | intraperitoneal, 3 mg/kg | 15
CCCCCCCCCCCCCCCC(=O)NCCCCCCNC(=O)C(CCCCNC(=O)CCN1C(=O)CC(SC[C@H](NC(=O)[C@H](CCCNC(=N)N)NC(=O)CNC(=O)[C@H](CCCCN)NC(=O)[C@@H](NC(=O)[C@H](CC(C)C)NC(=O)[C@H](Cc2c[nH]c3ccccc23)NC(=O)[C@H](C)NC(=O)[C@@H](NC(=O)[C@H](Cc2ccccc2)NC(=O)[C@H](CCC(=O)O)NC(=O)[C@H](CCCCN)NC(=O)[C@H](C)NC(=O)[C@H](C)NC(=O)[C@H](CCC(N)=O)NC(=O)CNC(=O)[C@H](CCC(=O)O)NC(=O)[C@H](CC(C)C)NC(=O)[C@H](Cc2ccc(O)cc2)NC(=O)[C@H](CO)NC(=O)[C@H](CO)NC(=O)[C@@H](NC(=O)[C@H](CC(=O)O)NC(=O)[C@H](CO)NC(=O)[C@@H](NC(=O)[C@H](Cc2ccccc2)NC(=O)[C@@H](NC(=O)CNC(=O)[C@H](CCC(=O)O)NC(=O)CNC(=O)[C@@H](N)Cc2c[nH]cn2)[C@@H](C)O)[C@@H](C)O)C(C)C)[C@@H](C)CC)C(C)C)C(N)=O)C1=O)NC(=O)CCN1C(=O)CC(SC[C@H](NC(=O)[C@H](CCCNC(=N)N)NC(=O)CNC(=O)[C@H](CCCCN)NC(=O)[C@@H](NC(=O)[C@H](CC(C)C)NC(=O)[C@H](Cc2c[nH]c3ccccc23)NC(=O)[C@H](C)NC(=O)[C@@H](NC(=O)[C@H](Cc2ccccc2)NC(=O)[C@H](CCC(=O)O)NC(=O)[C@H](CCCCN)NC(=O)[C@H](C)NC(=O)[C@H](C)NC(=O)[C@H](CCC(N)=O)NC(=O)CNC(=O)[C@H](CCC(=O)O)NC(=O)[C@H](CC(C)C)NC(=O)[C@H](Cc2ccc(O)cc2)NC(=O)[C@H](CO)NC(=O)[C@H](CO)NC(=O)[C@@H](NC(=O)[C@H](CC(=O)O)NC(=O)[C@H](CO)NC(=O)[C@@H](NC(=O)[C@H](Cc2ccccc2)NC(=O)[C@@H](NC(=O)CNC(=O)[C@H](CCC(=O)O)NC(=O)CNC(=O)[C@@H](N)Cc2c[nH]cn2)[C@@H](C)O)[C@@H](C)O)C(C)C)[C@@H](C)CC)C(C)C)C(N)=O)C1=O (some centres unmarked) | – | Kunming mouse, plasma | subcutaneous, 50 nmol/kg | 198 ± 30
O=C(c1cc(Cc2n[nH]c(=O)c3ccccc23)ccc1F)N1CC(CNC2CC2)C1 | – | ICR mouse, female, plasma | oral, 60 mg/kg | ≤ 15
CC[C@H](C)[C@H](NC(=O)[C@H](Cc1ccccc1)NC(=O)[C@H](CCC(=O)O)NC(=O)[C@H](CCCCN)NC(=O)[C@H](C)NC(=O)[C@H](C)NC(=O)[C@H](CCC(N)=O)NC(=O)CNC(=O)[C@H](CCC(=O)O)NC(=O)[C@H](CC(C)C)NC(=O)[C@H](Cc1ccc(O)cc1)NC(=O)[C@H](CO)NC(=O)[C@H](CO)NC(=O)[C@@H](NC(=O)[C@H](CC(=O)O)NC(=O)[C@H](CO)NC(=O)[C@@H](NC(=O)[C@H](Cc1ccccc1)NC(=O)[C@@H](NC(=O)CNC(=O)[C@H](CCC(=O)O)NC(=O)CNC(=O)[C@@H](N)Cc1c[nH]cn1)[C@@H](C)O)[C@@H](C)O)C(C)C)C(=O)N[C@@H](C)C(=O)N[C@@H](Cc1c[nH]c2ccccc12)C(=O)N[C@@H](CC(C)C)C(=O)N[C@H](C(=O)N[C@@H](CCCCN)C(=O)NCC(=O)N[C@@H](CCCNC(=N)N)C(=O)N[C@@H](CSC1CC(=O)N(CCC(=O)NCCCCC(NC(=O)CCN2C(=O)CC(SC[C@H](NC(=O)[C@H](CCCNC(=N)N)NC(=O)CNC(=O)[C@H](CCCCN)NC(=O)[C@@H](NC(=O)[C@H](CC(C)C)NC(=O)[C@H](Cc3c[nH]c4ccccc34)NC(=O)[C@H](C)NC(=O)[C@@H](NC(=O)[C@H](Cc3ccccc3)NC(=O)[C@H](CCC(=O)O)NC(=O)[C@H](CCCCN)NC(=O)[C@H](C)NC(=O)[C@H](C)NC(=O)[C@H](CCC(N)=O)NC(=O)CNC(=O)[C@H](CCC(=O)O)NC(=O)[C@H](CC(C)C)NC(=O)[C@H](Cc3ccc(O)cc3)NC(=O)[C@H](CO)NC(=O)[C@H](CO)NC(=O)[C@@H](NC(=O)[C@H](CC(=O)O)NC(=O)[C@H](CO)NC(=O)[C@@H](NC(=O)[C@H](Cc3ccccc3)NC(=O)[C@@H](NC(=O)CNC(=O)[C@H](CCC(=O)O)NC(=O)CNC(=O)[C@@H](N)Cc3c[nH]cn3)[C@@H](C)O)[C@@H](C)O)C(C)C)[C@@H](C)CC)C(C)C)C(N)=O)C2=O)C(=O)NCCCCCCN)C1=O)C(N)=O)C(C)C (some centres unmarked) | – | Kunming mouse, plasma | subcutaneous, 50 nmol/kg | 60
CN[C@H](CC(C)C)C(=O)N[C@H]1C(=O)N[C@@H](CC(N)=O)C(=O)N[C@H]2C(=N)N[C@H]3C(=O)N[C@H](C(=O)N[C@H](C(=O)NCCCNC(=N)N)c4cc(O)cc(O)c4-c4cc3ccc4O)[C@H](O)c3ccc(c(Cl)c3)Oc3cc2cc(c3O[C@@H]2O[C@H](CO)[C@@H](O)[C@H](O)[C@H]2O[C@H]2C[C@](C)(NCc3ccc(-c4ccc(Cl)cc4)cc3)[C@H](O)[C@H](C)O2)Oc2ccc(cc2Cl)[C@H]1O | – | mouse | intravenous, 25 mg/kg | 30
CC[C@H](C)[C@H](NC(=O)[C@H](CCCN)NC(=O)[C@H](CCCNC(=N)N)NC(=O)[C@@H]1CCCN1C(=O)[C@@H]1CCCN1C(=O)[C@H](CCCNC(=N)N)NC(=O)[C@@H]1CCCN1C(=O)[C@H](CCCNC(=N)N)NC(=O)[C@@H]1CCCN1C(=O)[C@H](CC(C)C)NC(=O)[C@H](Cc1ccc(O)cc1)NC(=O)[C@@H]1CCCN1C(=O)[C@@H]1CCCN1C(=O)[C@H](CCCCN)NC(=O)[C@H](CC(=O)O)NC(=O)[C@@H](N)C(C)C)C(=O)N[C@@H](Cc1ccc(O)cc1)C(=O)N[C@@H](CC(N)=O)C(=O)N[C@@H](CCCN)C(N)=O | competitive ELISA | mouse CD-1, female, plasma | subcutaneous, 4.34 µmol/kg | 15
Cc1sc2c(c1C)C(c1ccc(Cl)cc1)=N[C@@H](CC(=O)OC(C)(C)C)c1nnc(C)n1-2 | – | CD1 mouse, male, plasma | oral, 10 mg/kg | 15
CC(C)C[C@@H]1NC(=O)[C@@H](Cc2c[nH]c3ccccc23)NC(=O)[C@H](CCCNC(=N)N)NC(=O)[C@@H](CCC(=O)O)NC(=O)[C@H](CCC(N)=O)NC(=O)[C@@H](CCC(=O)O)NC(=O)[C@H](CCCNC(=N)N)NC(=O)[C@@H](Cc2c[nH]c3ccccc23)NC1=O | – | C57BL/6 mouse, plasma | subcutaneous, 7.5 mg/kg, acetate buffer pH 4 vehicle | 30

Repeated from above:
Compound | assay | test system | setting | Tmax [min]
O=C(c1cc(Cc2n[nH]c(=O)c3ccccc23)ccc1F)N1CC(CNC2CC2)C1 | – | ICR mouse, female, plasma | oral, 60 mg/kg | ≤ 15
